Measured values from different studies.
Protocols differ between the studies behind these lines. Several values in a cell are separate wells, animals, samples, runs or records.
Target: Serine/threonine-protein kinase BRSK2 (BRSK2, Homo sapiens, UniProt Q8IWQ3)
One construct used (Q8IWQ3 1-736): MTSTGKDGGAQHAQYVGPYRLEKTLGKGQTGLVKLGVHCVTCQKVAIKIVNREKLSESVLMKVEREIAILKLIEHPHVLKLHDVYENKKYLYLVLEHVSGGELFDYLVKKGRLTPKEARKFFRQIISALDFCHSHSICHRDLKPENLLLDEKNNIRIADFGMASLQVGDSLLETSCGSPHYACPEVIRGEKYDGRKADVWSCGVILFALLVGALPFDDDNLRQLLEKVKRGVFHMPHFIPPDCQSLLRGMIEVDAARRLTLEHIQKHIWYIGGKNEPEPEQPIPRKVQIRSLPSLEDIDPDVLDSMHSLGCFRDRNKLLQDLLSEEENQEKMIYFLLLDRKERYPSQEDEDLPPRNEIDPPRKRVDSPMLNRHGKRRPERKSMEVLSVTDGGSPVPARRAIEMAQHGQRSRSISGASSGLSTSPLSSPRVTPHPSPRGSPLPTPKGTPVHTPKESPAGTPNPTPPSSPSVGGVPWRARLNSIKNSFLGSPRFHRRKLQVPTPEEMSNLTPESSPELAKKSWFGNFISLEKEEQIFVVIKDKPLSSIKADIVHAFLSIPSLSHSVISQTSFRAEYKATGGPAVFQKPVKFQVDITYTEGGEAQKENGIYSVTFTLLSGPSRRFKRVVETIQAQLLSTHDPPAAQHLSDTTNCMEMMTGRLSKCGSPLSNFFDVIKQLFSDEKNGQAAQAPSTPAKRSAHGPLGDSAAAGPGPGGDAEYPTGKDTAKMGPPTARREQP

| SMILES | test | test system | setting | scale | endpoint | result |
| --- | --- | --- | --- | --- | --- | --- |
| Cc1nc2c(F)cc(-c3nc(Nc4ccc(CNC(=O)CCCCCCC(=O)NO)cc4)ncc3F)cc2n1C(C)C | enzyme activity, inhibitor |  | 1 µM |  | inhibition | 80% |
| COc1cc(Nc2nccc(-c3cnn4nc(OC)ccc34)n2)cc(C(F)(F)F)c1 | binding, competition with immobilised ligand |  | 1 µM |  | remaining binding | 89% |
| C=CC(=O)N1CCc2ccc(-n3c(=O)ccc4cnc5ccc(-c6cnn(C)c6)cc5c43)cc21 | KINOMEscan |  | 1 µM | relative to: DMSO control | remaining binding | 100% |
| O=C=[N][Ru-4]123([n]4c5ccc(O)cc5c5c6c(c7cc(F)c[n+]1c7c54)C(=O)NC6=O)[S+]1CC[S+]2CC[S+]3CC1 (stereo not drawn) | enzyme activity |  | 100 nM, human enzyme, added: 10 µM ATP | relative to: untreated | remaining activity | 80% |
| C=CC(=O)Nc1cccc(-c2cnc3[nH]cc(C(=O)NC(C)(C)C)c3n2)c1 | kinase activity |  | 0.1 µM |  | inhibition | 37% and 34% |
| Cc1cccc(-c2ccc3nc(NC(=O)C4CCCCC4)nn3c2)c1 | enzyme activity, Dundee kinase panel |  | 10 µM |  | remaining activity | 64% |
| Cc1cnc2nc1Nc1cccc(c1)COC/C=C/COCc1cc(ccc1OCCN1CCOCC1)N2 | binding |  | 0.1 µM |  | remaining binding | 92% |
| NC(=O)[C@@H](O)C[C@H]1CCc2sc3ncnc(O[C@H]4CC[C@H](N5CCOCC5)CC4)c3c21 | enzyme activity, inhibitor |  | 10 µM |  | inhibition | 5% |
| CC(C)=CC1OC(C)(C)C2C=C3C(=O)C(Cl)=CC(O)C3C3C(O)C4OC4C(=O)C132 (stereo not drawn) | cell-free assay, competition with immobilised ligand |  | 10 µM |  | remaining binding | 83% |
| CCN1CCN(Cc2ccc(C(=O)Nc3ccc(C)c(NCc4cnc5[nH]ccc5c4OC)c3)cc2C(F)(F)F)CC1 | binding, competition with immobilised ligand |  | 1 µM |  | remaining binding | 62% |
| COc1c(OCCCN2CCOCC2)ccc2c1N=C(NC(=O)c1cnc(N)nc1)N1CCN=C21 | kinase activity, inhibitor |  | 1 µM | relative to: untreated control | remaining activity | 108% |
| CNC(=O)C[C@H](Cc1ccc(C#N)cc1)NC(=O)c1cc(-c2ccc(CN[C@H](C)c3ccc(C)cc3)o2)ccc1Cl | enzyme activity, inhibitor |  | 1 µM |  | activity vs control | 97% |
| Cc1ccc(C)c(-c2ccc3nc(NC(=O)C4CCCCC4)nn3c2)c1 | enzyme activity, Dundee kinase panel |  | 10 µM |  | remaining activity | 76% |
| Cc1cccc(O[C@H]2CCC[C@@H](C(C)CNCc3ccncc3)C2)c1 (relative stereo) | enzyme activity, inhibitor |  | 10 µM |  | inhibition | -9% |
| COc1ccc(NC(=O)Nc2ccc3c(c2)C(=O)N(C(C)CO)CC(C)C(CN(C)Cc2ccc4c(c2)OCO4)O3)cc1 (stereo not drawn) | kinase activity, KinaseProfiler |  | 0.03 µM, species human | relative to: control | remaining activity | 107% |
| O=C(Cc1ccc(OCc2ccccc2)cc1)NC1(C(=O)O)CCN(C(=O)c2ccc(-c3cccc(Cl)c3)cc2)CC1 | enzyme activity, inhibitor |  | 10 µM |  | activity vs control | 174% |
| Cc1ccc(-c2c(/C=C(\C#N)C(=O)NC(C)C)n(CCCO)c3ncnc(N)c23)cc1 | cell-free assay, competition with immobilised ligand |  | 1 µM |  | remaining binding | 100% |
| N[C@H]1CC[C@H](Nc2nccc(-c3cccnc3Oc3ccc(NC(=O)NC4CC4)c4ccccc34)n2)CC1 | kinobead competition pulldown | HEK293/HCT116 lysate mixture | 10 µM, 1 h, 4 °C | lower = stronger competition | log2 LFQ intensity | 22.5 and 22.7 and 22.6 |

Excerpt of the above:
| SMILES | test | test system | setting | scale | endpoint | result |
| --- | --- | --- | --- | --- | --- | --- |
| CCN1CCN(Cc2ccc(C(=O)Nc3ccc(C)c(NCc4cnc5[nH]ccc5c4OC)c3)cc2C(F)(F)F)CC1 | binding, competition with immobilised ligand |  | 1 µM |  | remaining binding | 62% |
| Cc1nc2c(F)cc(-c3nc(Nc4ccc(CNC(=O)CCCCCCC(=O)NO)cc4)ncc3F)cc2n1C(C)C | enzyme activity, inhibitor |  | 1 µM |  | inhibition | 80% |
| COc1cc(Nc2nccc(-c3cnn4nc(OC)ccc34)n2)cc(C(F)(F)F)c1 | binding, competition with immobilised ligand |  | 1 µM |  | remaining binding | 89% |
